Assay results pooled from the literature.
A part holds a random share of what one study measured.
UniProt P17106, sequence (whole entry, looked up): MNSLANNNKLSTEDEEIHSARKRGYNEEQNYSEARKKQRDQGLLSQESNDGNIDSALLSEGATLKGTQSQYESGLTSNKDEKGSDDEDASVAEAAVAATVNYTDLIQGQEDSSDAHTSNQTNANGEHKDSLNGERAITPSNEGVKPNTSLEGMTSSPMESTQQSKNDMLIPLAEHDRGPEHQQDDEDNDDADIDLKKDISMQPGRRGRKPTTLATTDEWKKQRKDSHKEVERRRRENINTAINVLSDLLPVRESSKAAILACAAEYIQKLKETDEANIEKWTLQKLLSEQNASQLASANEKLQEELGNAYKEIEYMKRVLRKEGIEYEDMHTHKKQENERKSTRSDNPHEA

Set 1
Target: HLA class I histocompatibility antigen, A alpha chain, allele A*80:01 (Homo sapiens, UniProt P04439)
Effect on: peptide-MHC binding
Form: peptide
Tested at: concentration not given
Sequence | binding
SLGDPLHQA | inactive
GTEELKSLY | inactive
ETVWPFFYA | inactive
YFHKRDMRL | inactive
LEEDIQHFL | inactive
EIKDRILSY | inactive
YLIPSVTSL | inactive
LEMNDAPTA | inactive

Set 2
Target: UBE2D4 UBC core domain (UniProt Q9Y2X8)
Method: yeast two-hybrid
Sample: yeast
Setting: mostly zero background
Reference: not given
Reading: higher = stronger interaction
B1: TRIM52 RING domain (UniProt Q96A61); chain PMQTLQEEAVCAICLDYFKDPVSISCGHNFCRGCVTQLWSKEDEEDQNEEEDEWEEEEDEEAV
B2: TRIM10 RING domain (UniProt Q9UDY6); chain SVTSLADEVNCPICQGTLREPVTIDCGHNFCRACLTRYCEIPGPDLEESPTCPLCKEPFRPGSFRP
B3: RNF4 RING domain (UniProt P78317); chain TGLRPSGTVSCPICMDGYSEIVQNGRLIVSTECGHVFCSQCLRDSLKNANTCPTCRKKINHKRYHP
B4: RNF112 RING domain (UniProt Q9ULX5); chain QPMAPRELPTCSICLERLRDPISLDCGHDFCIRCFSTHRLPGCEPPCCPECRKICKQKRGLR
B5: TRIM35 RING domain (UniProt Q9UPQ4); chain PSRSFKEELLCAVCYDPFRDAVTLRCGHNFCRGCVSRCWEVQVSPTCPVCKDRASPADLRT
Residues (chain): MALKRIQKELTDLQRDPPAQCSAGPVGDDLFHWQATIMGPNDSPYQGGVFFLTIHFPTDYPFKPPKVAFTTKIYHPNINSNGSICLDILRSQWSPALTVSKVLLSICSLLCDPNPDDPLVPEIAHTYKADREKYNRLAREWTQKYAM
Sequence | lacZ reporter activity
QLQDEEDDSLCRICMDAVIDCVLLECGHMVTCTKCGKRMSECPICRQYVVRAVHVF (RNF34 RING domain (UniProt Q969K3)) | 0
LKQVSIRENCCSLCCDEVADTQLKPCGHSDLCMDCALQLETCPLCRKEIVSRIRQI (RSPRY1 RING domain (UniProt Q96DX4)) | 0
KRQCSDVDDICSICQAEFQKPILLICQHIFCEECMTLWFNREKTCPLCRTVISDHINKW (RNFT1 RING domain (UniProt Q5M7Z0)) | 0
B1 (TRIM52 RING domain) | 0
B2 (TRIM10 RING domain) | 0
B3 (RNF4 RING domain) | 3490
B4 (RNF112 RING domain) | 0
B5 (TRIM35 RING domain) | 0

Further values, each from its own experiment
Molecule | target or system | test | system | setting | scale | endpoint | value
CCC1=C[C@@H]2CN3CCc4c([nH]c5ccccc45)[C@@](C(=O)OC)(C2)[C@@H]13 | HaCaT | – | – | 100 µM, 60 h | – | viability | 55.8%
O=C1CCC(N2Cc3c(ccc4c3OCC43CCN(Cc4ccccc4)CC3)C2=O)C(=O)N1 (stereo not drawn) | – | metabolic stability | mouse, liver microsomes | 1 µM, 45 min | – | compound remaining | 64.9%
CN(C)C(=O)COC(=O)Cc1ccc(OC(=O)c2ccc(NC(=N)N)cc2)cc1 | Urokinase-type plasminogen activator (PLAU, Homo sapiens, UniProt P00749) | – | – | – | – | IC50 | 16.4 nM
TGTACGAAGCTATTCCACGTGGTTATAGTAGTTAGGGTCTTGATTCGCTTGACGCTGCTG | Centromere-binding protein 1, full length, N-terminal tag (CBF1, Saccharomyces cerevisiae, UniProt P17106, residues 1-351) | protein-binding microarray | double-stranded DNA, one strand shown, in vitro | 0.8 µM, whole 60-bp probe, no competitor | higher = stronger binding | fluorescence intensity | 4010 a.u.
CN1C(=O)CCS(=O)(=O)C1c1ccc(Cl)cc1 (stereo not drawn) | A-375 | – | – | 100 µM, 18 h | – | viability | 98.1%

A few entries again (set 2):
Sequence | lacZ reporter activity
B4 (RNF112 RING domain) | 0
